Measured values pooled from the literature.
Every numbered part comes from another study and shows a few of its results, in no order. Changes are numbered by the printed parent chain.

Block 1
Target: CCND2, cyclin fold, Cln2 fusion (human)
Method: yeast growth competition, sequencing
Sample: yeast
Notes: weak parent motif
Relative to: not given
Reading: higher = stronger binding
Parent: BORA docking peptide (human); SSLRRKLFLDGNG; partner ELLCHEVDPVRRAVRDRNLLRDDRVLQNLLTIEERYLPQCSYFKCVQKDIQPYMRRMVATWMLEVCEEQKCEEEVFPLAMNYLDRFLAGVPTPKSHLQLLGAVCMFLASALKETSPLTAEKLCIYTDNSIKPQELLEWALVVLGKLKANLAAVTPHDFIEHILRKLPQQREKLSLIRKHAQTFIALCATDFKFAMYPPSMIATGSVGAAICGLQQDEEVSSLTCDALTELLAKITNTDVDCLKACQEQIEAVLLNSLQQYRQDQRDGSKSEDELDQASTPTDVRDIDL
| Change | normalised enrichment score |
| --- | --- |
| D10A | -0.0993 |
| R5K F8L | 0.15 |
| R5A | -0.0313 |
| R5K | -0.0717 |
| K6A | -0.0702 |
| L3A | -0.193 |
| L9A | -0.443 |
| N12A | 0.211 |

Block 2
Target: FOS, bZIP domain (human)
Method: DHFR protein complementation
Sample: yeast
Notes: single substitutions, most at no-binding floor
Relative to: wild-type JUN-FOS pair
Reading: higher = stronger binding
Parent: JUN, bZIP domain (human); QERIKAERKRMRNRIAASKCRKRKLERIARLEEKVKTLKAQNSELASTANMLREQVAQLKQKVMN; partner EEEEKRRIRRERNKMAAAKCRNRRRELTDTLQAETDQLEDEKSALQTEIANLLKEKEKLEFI
| Change | binding fitness |
| --- | --- |
| L38S | -1.16 natural log |
| E44S | -0.204 natural log |
| S43F | -0.104 natural log |
| M51D | 0.00223 natural log |
| K39I | -0.583 natural log |
| K36M | 0.0707 natural log |
| K36I | -0.149 natural log |
| I28P | -0.374 natural log |
| K39N | -0.612 natural log |
| K34E | -0.316 natural log |
| T48Q | 0.0636 natural log |
| A46S | -0.0883 natural log |
| Q41D | -0.204 natural log |
| L31E | -0.427 natural log |
| M51R | 0.00675 natural log |
| V35H | -0.495 natural log |
| L52C | -1.49 natural log |

Block 3
Target: RNA binding protein fox-1 homolog 2, RRM domain, GST-SBP tag (RBFOX2, Homo sapiens, UniProt O43251-10, residues 100-194)
Method: RNA Bind-n-Seq
Form: RNA
Sample: in vitro
Tested at: 365 nM
Notes: natural RNA segment, single round, ends assumed
Relative to: no-protein control
Reading: higher = stronger binding
Residues (chain): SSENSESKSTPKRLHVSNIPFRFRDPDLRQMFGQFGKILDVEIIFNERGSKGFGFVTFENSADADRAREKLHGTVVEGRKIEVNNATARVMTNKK
| Sequence | RBNS enrichment (R) |
| --- | --- |
| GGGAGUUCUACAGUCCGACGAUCGCAGGCACUGUGGCCGCUGAGCUGCGUGUUCCCAGCUGCCUCUGUUGCGGACAGCCCGCUCCACUCUCCACCCUGUACUCCAUAAAUAAAGCUACGUGCUUCUGCCCUGAUGGAAUUCUCGGGUGCCAA | 0.313 |
| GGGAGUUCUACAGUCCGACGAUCUUAGCAAAGACAACUGCUCCUGCUCCACUAGAUAUGACUUCCUCUCCUGUGACAACAGCCAGUUUAGAAAAACUCCCUGUACCCCAGAUCAGUGGAACUGCAACAUCUACUGGAAUUCUCGGGUGCCAA | 0.503 |
| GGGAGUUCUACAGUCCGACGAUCAACUUCUGUGCUGCUUUGCCCCUAGCCAAGGCUCUCCUUCCCCAAGAGGUUAGCUUUGGCAUUGGAAGAUGAGAUUUUUGCUUACCUGUAGUAUUUCUGUACAUACCUGUUGGAAUUCUCGGGUGCCAA | 0.279 |
| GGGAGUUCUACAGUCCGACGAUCACUGUGUCAUAGUGGACCCUGACUGCAGGAGUCAGGCCUCUCAGCCCAGGGCAGAUGCUGCCUUUAUCUUCUAUCAUUUGUAUGACGUGGCUGGAUGGAGUUUCUUUUGUUGGAAUUCUCGGGUGCCAA | 0.284 |
| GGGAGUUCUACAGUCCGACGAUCAUGGCAAGCUCCCAGAUUCCUUCCAGGAAAGUCAACUGUGUCUUAAGGCUUUGCGGCCUGCGCAGACUAUAUCCUGCUUCAGACUAGAUACAAUUGCCCCUUUUUAUAUAUGGAAUUCUCGGGUGCCAA | 0.209 |
| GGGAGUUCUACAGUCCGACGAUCCCCAAAUGCAGCCCAUCGGGGAGUCACAGUCAGUCCCCCCGGCCCCCCUCCCAGUCCCUGUUGGCUUUCGGUAGCUCUCGCAUGCAGUUCUAUUAACAGCCGUCUAGAAGUGGAAUUCUCGGGUGCCAA | 14.4 |
| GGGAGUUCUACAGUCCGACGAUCUCUCCCAACGUUUGCCUCCCAAUGUUGUCCCUUUCCUUCGUUCCCAUGGUAAAGCUCCUCUCGCUUUCCUCCUGAGGCUACACCCAUGCGUCUCUAGGAACUGGUCACAAUGGAAUUCUCGGGUGCCAA | 0.548 |
| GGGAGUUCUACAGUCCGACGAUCUUGAAAAUACUCAGUGUAGAUCUCUAUGUGUAUAGGUAUCUGUAUAUCUUUCCUUUUGUUUACAACUGUUAAAAAACCUCAAAAUAGUUCUCUUCAAAAGAAGAGAGAUUUGGAAUUCUCGGGUGCCAA | 0.52 |
| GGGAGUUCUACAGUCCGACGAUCUGAAGACACUGAAAUACAGACUUAAAUAGCUCAGAUAGCUAAUUAGGAAAUUUCAAGUUGGCCAAUAAUAGCAUUCUCUCUGACAUUUAAAAAUAAUUUCUAUUCAAAAUUGGAAUUCUCGGGUGCCAA | 0.637 |
| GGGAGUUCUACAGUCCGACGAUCCUGUAUACCUAGAUGAUGACUAAAUGCAAAAUCCUUGGGCUUUGGUUUUUUUCUAGUAAGGAUUUUAAAUAACUGCCGACUUCAAAAGUGUUCUUAAAACGAAAGAUAAUUGGAAUUCUCGGGUGCCAA | 0.418 |
| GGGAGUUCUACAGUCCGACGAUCUUCCCCAGGCCCUGCCUGUGGUUCCUGCCUGGGCCUUGGCUGCUGCUGUGUGAGAGCUGCAUGUGAGCCUGUGACCGUGAGCUGGGGUGAGCUGGGCCGCACCUACCCUGUGGAAUUCUCGGGUGCCAA | 0.997 |
| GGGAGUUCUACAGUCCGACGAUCUCAUUUUGUUUUGGGUUGGUCCAAUUUUAAAAGGAAAUACUACAAUAAAAAUGUUAACCAGAAGGUAACCCUGAGUGUGAUUGUGAGAGAGACACGCCUUUUUACUAGUUUGGAAUUCUCGGGUGCCAA | 0.966 |

Block 4
Target: Ras GTPase-activating protein-binding protein 1, C-terminal RGG region (G3BP1, Homo sapiens, UniProt Q13283)
Sequence of UniProt Q13283 (whole entry, looked up): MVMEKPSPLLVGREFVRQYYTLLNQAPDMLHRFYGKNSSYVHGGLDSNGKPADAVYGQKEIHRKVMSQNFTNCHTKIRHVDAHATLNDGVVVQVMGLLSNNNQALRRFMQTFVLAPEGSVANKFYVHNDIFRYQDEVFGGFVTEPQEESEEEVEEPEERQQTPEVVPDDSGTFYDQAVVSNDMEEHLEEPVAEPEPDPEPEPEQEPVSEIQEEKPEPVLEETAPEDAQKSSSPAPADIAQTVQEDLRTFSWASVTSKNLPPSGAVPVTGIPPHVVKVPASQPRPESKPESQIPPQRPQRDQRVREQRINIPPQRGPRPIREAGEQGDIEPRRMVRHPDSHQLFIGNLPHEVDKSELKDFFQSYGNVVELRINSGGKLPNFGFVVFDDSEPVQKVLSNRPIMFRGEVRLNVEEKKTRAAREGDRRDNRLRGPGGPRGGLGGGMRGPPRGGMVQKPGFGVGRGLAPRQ
Method: RNA Bind-n-Seq
Form: RNA
Sample: in vitro
Tested at: 1 µM
Notes: whole 134-nt RNA, ends assumed
Together with: 150 mM KCl
Relative to: input library
Reading: higher = stronger binding
| Sequence | log2 enrichment |
| --- | --- |
| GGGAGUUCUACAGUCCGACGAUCAAGUCCUGUGCUACACAUCGUAUGUACCGAAUCGGCCCCGGGGCCCCGGGGCCCCGGAAAGUAUUAUGUUACGCCGUUCGGAUCUGCACUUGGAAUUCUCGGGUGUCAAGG | -3.35 |
| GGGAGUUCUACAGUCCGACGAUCACCAUAAAGGUGGGCAUCUUUGGGAAGUGGGGCAAGGGGGGGAUAGGGAGGGGGGUAACACUUUGGGAACAGGUGGUCCCAGGUCGUUUCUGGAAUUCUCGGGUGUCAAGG | -0.942 |
| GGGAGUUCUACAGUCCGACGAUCUAACUGUAGAGGAGGAUCUGAUGGAUAUGGCAGUGGACGUGGAUUUGGGGAUGGCUAUAAUGGGUAUGGAGGAGGACCUGGAGGUGGCAAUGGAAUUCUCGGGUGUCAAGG | -0.0227 |
| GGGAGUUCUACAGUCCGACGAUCCAAGUCCUGUGCUACACAUCGUAUGUACCGAAUCGGAAAGGUUUGGUUUUUUUGGAAAGUAUUAUGUUACGCCGUUCGGAUCUGCACUUCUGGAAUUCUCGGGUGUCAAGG | -1.7 |
| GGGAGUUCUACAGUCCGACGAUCUAACUUAAGAGGAGGAUCUGAUGGAUAUGGCAGUGGACGUGGAUUUGGGGAUGGCUAUAAUGGGUAUGGAGGAGGACCUGGAGGUGGCAAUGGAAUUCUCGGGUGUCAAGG | -0.922 |
| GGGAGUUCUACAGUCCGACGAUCAAGUCCUGUGCUACACAUCGUAUGUACCGAAUCGGCCCCCGGGCCCCCGGCCCCCGGAAAGUAUUAUGUUACGCCGUUCGGAUCUGCACUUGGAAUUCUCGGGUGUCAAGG | -1.57 |
| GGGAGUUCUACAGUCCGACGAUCAGUCCUGUGCUACACAUCGUAUGUACCGAAUCGGUUUUUGGAAAAAGGUUUUUUUGGAAAGUAUUAUGUUACGCCGUUCGGAUCUGCACUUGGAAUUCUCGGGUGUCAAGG | -2.42 |
| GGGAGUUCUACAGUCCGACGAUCAGUCCUGUGCUACACAUCGUAUGUACCGAAUCGGGGUUUUUUUGGGGUGGGGAGGGGAAAGUAUUAUGUUACGCCGUUCGGAUCUGCACUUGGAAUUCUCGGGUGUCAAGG | 2.12 |
| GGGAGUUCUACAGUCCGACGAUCUGGGAGGUGGAUUUCGUUUAUUUUUUUAGCUCAUUUCCAGGGGUGGGAAUUUUUUUUUAAUAUGUGUCAUGAAUAAAGUUGUUUUUGAAAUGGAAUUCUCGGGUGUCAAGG | 2.81 |
| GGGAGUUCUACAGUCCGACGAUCUAACUUUAGAGGAGGAUCUGAUGGAUAUGGCAGUGGACGUGGAUUUGGGGAUGGCUAUAAUGGGUAUGCAGGAGGACCUGGAGGUGGCAAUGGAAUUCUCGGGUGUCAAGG | -1.03 |
